# Measured values collected from several papers.
# Each line is one published result; not all experiments were run side by side. ± marks the error that the study gave.
SMILES,test,system,setting,how to read,endpoint,value
CC[C@H](C)C(=O)N1CCC(NC(=O)Nc2ccc(OC(F)(F)F)c(F)c2)CC1,,healthy volunteers,"oral, 24 mg single dose",,subjects with insomnia TEAE,0%
CC1(C)C(=CC=CC=CC2=[N+](CCCCN=[N+]=[N-])c3ccc(S(=O)(=O)[O-])cc3C2(C)C)N(CCCCCC(=O)O)c2ccccc21,,water,concentration not given,baseline: DMSO,molar absorptivity reduction,40%
O=C(O)CC[C@H](NC(=O)O[C@@H](CCCCNC(=O)c1ccc([18F])cc1)C(=O)O)C(=O)O,,"mouse, PC-3 PIP/flu xenografts, spleen",90 min,,tissue uptake,0.27 ± 0.04 %ID/g
CC(CCC(=O)NCC(=O)O)C1CCC2C3C(O)CC4CC(OC5OC(C(=O)O)C(O)C(O)C5O)CCC4(C)C3CCC12C (stereo not drawn),,"human, SLCO1B1 c.521 C/C, plasma","fasting, geometric mean, sex-adjusted",,plasma concentration,238 ng/mL
Cc1ccc(/C=C/C(=O)O)cc1-c1cc2c(cc1C)C(C)(C)CCC2(C)C,,"rat, Sprague-Dawley, male, serum","oral, 100 mg/kg, 24 h",,triglycerides,109 ± 16.4 ng/dL
COc1ccc2sc3c(c2c1)SCCNC3=O,,"mouse, plasma","iv, 25 mg/kg",,clearance,121 mL/min/kg
[2H]C([2H])([2H])C([2H])([2H])C([2H])([2H])OC(C(=O)OC1CCNCC1)(c1ccccc1)c1ccccc1,,"male human, plasma","oral, 10 mg, multiple doses",,Tmax,4 h
CC[C@H](C)[C@@H]1NC(=O)[C@H](CCCCN)NC(=O)[C@H](CCCCN)NC(=O)[C@H](Cc2ccc(O)cc2)NC(=O)[C@H](CC(C)C)NC(=O)[C@@H]2CCCN2C(=O)[C@H](C)NC(=O)CNC(=O)CNC(=O)[C@H](CO)NC(=O)CNC(=O)CNC(=O)[C@H](CO)NC(=O)[C@H](CCC(=O)O)NC(=O)[C@H](CC(C)C)NC(=O)[C@H](CC(C)C)NC(=O)[C@H](CCCCN)NC(=O)[C@H](CCCCN)NC(=O)[C@H]([C@@H](C)CC)NC(=O)[C@H]([C@@H](C)CC)NC(=O)[C@H](CCCCN)NC(=O)[C@H](CCCCN)NC(=O)[C@H](Cc2ccc(O)cc2)NC(=O)[C@H](CC(C)C)NC(=O)[C@@H]2CCCN2C(=O)CNC(=O)CNC(=O)[C@@H](NC(=O)CN)CSSC[C@@H](C(=O)O)NC(=O)[C@H](CC(C)C)NC(=O)[C@H](CCCCN)NC(=O)[C@H](CCCCN)NC(=O)[C@H]([C@@H](C)CC)NC1=O,hemolysis,uninfected human erythrocytes,1 h,,HC10,74.7 ± 3.5 µM
O=c1cc(-c2ccccc2)oc2c(Br)c(O)c(O)c(O)c12,,"C57BL/6 mouse, plasma","po, 250 mg/kg",,Ctrough,373 ± 272 ng/mL
CC[C@@H]1C[C@]1(NC(=O)[C@@H]1C[C@@]2(CN1C(=O)[C@@H](NC(=O)[C@@H](NC(=O)[C@@H]1CCCCN1C(C)C)C1CCCCC1)C(C)(C)C)C(C)(C)C21CCC1)C(=O)NS(=O)(=O)N1CCCC1,item: Pain,human,"oral, 10 mg, added: ritonavir 100 mg",,subjects with adverse event,0%
CC[C@H](C)[C@H](NC(=O)[C@H](CC(=O)O)NC(=O)[C@H](CO)NC(=O)[C@H](CCC(N)=O)NC(=O)[C@H](C)NC(=O)[C@H](CC(=O)O)NC(=O)[C@H](CCC(=O)O)NC(=O)[C@H](Cc1c[nH]cn1)NC(=O)[C@H](Cc1ccc(O)cc1)NC(=O)[C@H](C)NC(=O)[C@H](CC(=O)O)NC(=O)[C@H](CCC(=O)O)NC(=O)[C@H](Cc1c[nH]cn1)NC(=O)[C@H](Cc1ccc(O)cc1)NC(=O)[C@H](C)NC(=O)[C@H](CC(=O)O)NC(=O)[C@H](CCC(=O)O)NC(=O)[C@H](Cc1c[nH]cn1)NC(=O)[C@H](Cc1ccc(O)cc1)NC(=O)[C@H](C)NC(=O)[C@H](CC(=O)O)NC(=O)[C@H](CCC(=O)O)NC(=O)[C@H](Cc1c[nH]cn1)NC(=O)[C@H](Cc1ccc(O)cc1)NC(=O)[C@H](C)NC(=O)[C@H](CC(=O)O)NC(=O)[C@H](CCC(=O)O)NC(=O)[C@H](Cc1c[nH]cn1)NC(=O)[C@@H](N)Cc1ccc(O)cc1)C(=O)N[C@H](C(=O)N[C@@H](C)C(=O)N[C@@H](Cc1c[nH]cn1)C(=O)N[C@@H](CC(C)C)C(=O)N[C@@H](CC(C)C)C(=O)O)C(C)C,,"mouse, SN model",dose not given,,ALT,178 ± 18 IU/L
O=c1c2cc(Cl)ccc2sc2c(NCc3ccccc3)nc3ccccc3c12,,BALB/c nude mice,"i.p., 20 mg/kg",,body weight,24.95 ± 0.24 g
C[C@@H]1CC[C@H]2[C@@H](C)CO[C@@H]3O[C@@]4(C)CC[C@@H]1[C@]32OO4,item: compound,"rat, plasma","800 ng/mL spiked, 24 h, autosampler at 4 °C",,stability accuracy,102%
NS(=O)(=O)NCC(F)(F)c1ccccc1F,maximal electroshock test,mouse,ip,baseline: rotarod TD50 over MES ED50,therapeutic index,4.3
"O=C(c1ccc(F)cc1)C1CCN(C2Cc3c(cccc3OCC[18F])CC2O)CC1 (single isomer, unassigned; (-))",,"Sprague-Dawley rat, male, muscle","intravenous, dose not given, 60 min",,tissue uptake,0.253 ± 0.044 %ID/g
CC(C)C[C@H](NC(=O)[C@H](CCCCN)NC(=O)[C@H](CC(C)C)NC(=O)[C@H](CC(C)C)NC(=O)[C@H](CCCCN)NC(=O)[C@H](CCCCN)NC(=O)[C@H](CC(C)C)NC(=O)[C@H](CC(C)C)NC(=O)[C@H](CCCCN)NC(=O)[C@H](CC(C)C)NC(=O)[C@H](CC(C)C)NC(=O)[C@H](CCCCN)NC(=O)[C@H](CCCCN)NC(=O)[C@H](CC(C)C)NC(=O)[C@@H](N)CSSC[C@H](N)C(=O)N[C@@H](CC(C)C)C(=O)N[C@@H](CCC(=O)O)C(=O)N[C@@H](CCC(=O)O)C(=O)N[C@@H](CC(C)C)C(=O)N[C@@H](CC(C)C)C(=O)N[C@@H](Cc1c[nH]cn1)C(=O)N[C@@H](Cc1c[nH]cn1)C(=O)N[C@@H](CC(C)C)C(=O)N[C@@H](CCC(=O)O)C(=O)N[C@@H](CCC(=O)O)C(=O)N[C@@H](CC(C)C)C(=O)N[C@@H](CC(C)C)C(=O)N[C@@H](Cc1c[nH]cn1)C(=O)N[C@@H](Cc1c[nH]cn1)C(N)=O)C(N)=O,"chemical stability, HPLC","mouse, serum",8 h,,compound remaining,~90.4%
CN(C)C(CNC(=O)Nc1cc(C(F)(F)F)ccc1N1CCOCC1)c1ccncc1 (stereo not drawn),,"mouse, serum","intraperitoneal, 360 mg/kg single dose",,blood urea nitrogen,175 mg/dL
Cc1ccc(OCC(=O)N(Cc2cccs2)c2ccn[nH]2)cc1,,pregnant Crl:CD(SD) rat,"oral gavage, 125, 300, 1000 mg/kg/day, gestation days 6-20, maternal and embryo-fetal toxicity",,NOAEL,1000 mg/kg/day
CC1(O)CC23CC(O)C4(O)C(C5OC5C4(C)C)C(C)(O)C2CCC1C3O (stereo not drawn),dialysis,PBS,"24 h, pH 6.8, 37 °C",,cumulative release,95%
CC1=CC=c2ccc3c4c2[N]1[Re](=[C]=O)(=[C]=O)(=[C]=O)([C]#[N+]c1c(C)cccc1C)[N]4C(C)=CC=3.O=S(=O)([O-])C(F)(F)F,cyclic voltammetry,acetonitrile,irreversible reduction,,cathodic peak potential,-1.28 V vs SCE
Cc1ncc2c(n1)CN(C(=O)Nc1nc(-c3cccs3)ccc1N)C2,,"beagle dog, male","oral, 14 days daily",,NOAEL,120 mg/kg
COc1ccc(-c2oc3ccc(-c4cc(OC)c(OC)c(OC)c4)cc3c2C#CC(C)(C)O)cc1,metabolic stability,"mouse, liver microsomes",,,half-life,> 30 min
CC(C)[C@H](NC(=O)CNC(=O)[C@H](CCC(N)=O)NC(=O)[C@H](C)N)C(=O)O,,healthy male volunteers,"intravenous, 45 mg/kg/h, 2 h, added: LPS 2 ng/kg",,subjects with Probably related AE,0%
CSCC[C@H](NC(=O)CNC(=O)[C@H](CC(=O)O)NC(=O)[C@@H](NC(=O)[C@@H](NC(=O)[C@@H](NC(=O)CNC(=O)[C@H](CCC(N)=O)NC(=O)[C@H](CCSC)NC(=O)[C@H](CC(=O)O)NC(=O)[C@H](C)NC(=O)[C@H](C)NC(=O)[C@@H](NC(=O)[C@H](CO)NC(=O)[C@@H](N)CC(C)C)[C@@H](C)O)C(C)C)C(C)C)[C@@H](C)O)C(=O)N[C@@H](C)C(=O)N[C@@H](CO)C(=O)NCC(=O)N[C@@H](CC(C)C)C(=O)N[C@@H](CC(=O)O)C(=O)N[C@@H](CCCCN)C(=O)N[C@@H](CC(=O)O)C(=O)N[C@@H](Cc1ccc(O)cc1)C(=O)N[C@@H](CC(C)C)C(=O)N[C@@H](CCCCN)C(=O)N1CCC[C@H]1C(=O)N[C@@H](CC(=O)O)C(=O)N[C@@H](CC(=O)O)C(=O)O,,"human, serum","intravenous, 4.16 mg/kg, patients, infusion",,Tmax,0.08 h
CSCC[C@@H]1NC(=O)[C@@H]2CSSC[C@H](NC(=O)[C@H](CO)NC(=O)[C@H](C)N)C(=O)N[C@@H](CCCNC(=N)N)C(=O)N[C@@H]([C@@H](C)O)C(=O)N3CCC[C@H]3C(=O)N[C@@H](CCCCN)C(=O)N[C@@H](CC(=O)O)C(=O)N[C@H]3CSSC[C@H](NC(=O)[C@H](CCCCN)NC(=O)[C@H](CCCNC(=N)N)NC(=O)[C@H](CC(N)=O)NC1=O)C(=O)N[C@@H](CCCCN)C(=O)N[C@H]1CSSC[C@H](NC(=O)[C@@H]4CCCN4C(=O)[C@H](CC(=O)O)NC(=O)[C@H](C)NC3=O)C(=O)N[C@@H](C)C(=O)N[C@@H](CCCCN)C(=O)N[C@@H](CCC(=O)O)C(=O)N[C@@H]([C@@H](C)O)C(=O)NCC(=O)N[C@@H](CSSC[C@@H](C(N)=O)NC(=O)[C@H](CCCNC(=N)N)NC(=O)[C@H](CC(N)=O)NC1=O)C(=O)N1CCC[C@H]1C(=O)N[C@@H](Cc1ccc(O)cc1)C(=O)NCC(=O)N[C@@H](CCCCN)C(=O)N2,,"DA rat, pristane-induced arthritis, serum","subcutaneous, 0.1 mg/kg once weekly, end of 21-day trial",,alkaline phosphatase,54.8 U/L
CC(C)[C@H](NC(=O)CNC(=O)[C@H](CCC(N)=O)NC(=O)[C@H](C)N)C(=O)O,,human,"intravenous infusion, 90 mg/kg/h, 2 h, relatedness Probably",baseline: subjects,drug-related adverse events,0%
CCN(Cc1ccccc1)C(=O)CCc1nc(CN2CCN(C(=O)Cc3ccc(OC)c(OC)c3)CC2)no1,,mouse,intravenous,,LD50,67.23 ± 0.5 mg/kg
CC(C)C[C@H](NC(=O)[C@H](Cc1cccc2ccccc12)NC(=O)[C@H](CNC(=O)c1ccc2cc(F)ccc2c1)NC(=O)[C@H](CO)NC(=O)C1CCNCC1)C(=O)N[C@@H](CN)C(=O)N1CCC[C@H]1C(=O)N[C@H](C(N)=O)[C@@H](C)O,metabolic stability,"human, liver S9","3 µM, pH 7.4",,half-life,> 240 min
N=C(N)NCc1ccc(C(=O)NCCCC[C@H](NC(=O)N[C@@H](CCC(=O)O)C(=O)O)C(=O)O)cc1[211At],,"SCID mouse, PC-3 xenografts, lungs",4 h,,tissue uptake,1.69 ± 0.67 %ID/g
COC(=O)C[C@](O)(CCCC(C)(C)OC(C)=O)C(=O)O[C@@H]1C(OC)=C[C@]23CCCN2CCc2cc4c(cc2[C@H]13)OCO4,,"CD1 mouse, brain","subcutaneous, 1 mg/kg, 0.5 h",,tissue concentration,9.67 ng/mL

# A few entries again:
SMILES,test,system,setting,how to read,endpoint,value
Cc1ccc(OCC(=O)N(Cc2cccs2)c2ccn[nH]2)cc1,,pregnant Crl:CD(SD) rat,"oral gavage, 125, 300, 1000 mg/kg/day, gestation days 6-20, maternal and embryo-fetal toxicity",,NOAEL,1000 mg/kg/day
CSCC[C@@H]1NC(=O)[C@@H]2CSSC[C@H](NC(=O)[C@H](CO)NC(=O)[C@H](C)N)C(=O)N[C@@H](CCCNC(=N)N)C(=O)N[C@@H]([C@@H](C)O)C(=O)N3CCC[C@H]3C(=O)N[C@@H](CCCCN)C(=O)N[C@@H](CC(=O)O)C(=O)N[C@H]3CSSC[C@H](NC(=O)[C@H](CCCCN)NC(=O)[C@H](CCCNC(=N)N)NC(=O)[C@H](CC(N)=O)NC1=O)C(=O)N[C@@H](CCCCN)C(=O)N[C@H]1CSSC[C@H](NC(=O)[C@@H]4CCCN4C(=O)[C@H](CC(=O)O)NC(=O)[C@H](C)NC3=O)C(=O)N[C@@H](C)C(=O)N[C@@H](CCCCN)C(=O)N[C@@H](CCC(=O)O)C(=O)N[C@@H]([C@@H](C)O)C(=O)NCC(=O)N[C@@H](CSSC[C@@H](C(N)=O)NC(=O)[C@H](CCCNC(=N)N)NC(=O)[C@H](CC(N)=O)NC1=O)C(=O)N1CCC[C@H]1C(=O)N[C@@H](Cc1ccc(O)cc1)C(=O)NCC(=O)N[C@@H](CCCCN)C(=O)N2,,"DA rat, pristane-induced arthritis, serum","subcutaneous, 0.1 mg/kg once weekly, end of 21-day trial",,alkaline phosphatase,54.8 U/L
CC[C@H](C)[C@H](NC(=O)[C@H](CC(=O)O)NC(=O)[C@H](CO)NC(=O)[C@H](CCC(N)=O)NC(=O)[C@H](C)NC(=O)[C@H](CC(=O)O)NC(=O)[C@H](CCC(=O)O)NC(=O)[C@H](Cc1c[nH]cn1)NC(=O)[C@H](Cc1ccc(O)cc1)NC(=O)[C@H](C)NC(=O)[C@H](CC(=O)O)NC(=O)[C@H](CCC(=O)O)NC(=O)[C@H](Cc1c[nH]cn1)NC(=O)[C@H](Cc1ccc(O)cc1)NC(=O)[C@H](C)NC(=O)[C@H](CC(=O)O)NC(=O)[C@H](CCC(=O)O)NC(=O)[C@H](Cc1c[nH]cn1)NC(=O)[C@H](Cc1ccc(O)cc1)NC(=O)[C@H](C)NC(=O)[C@H](CC(=O)O)NC(=O)[C@H](CCC(=O)O)NC(=O)[C@H](Cc1c[nH]cn1)NC(=O)[C@H](Cc1ccc(O)cc1)NC(=O)[C@H](C)NC(=O)[C@H](CC(=O)O)NC(=O)[C@H](CCC(=O)O)NC(=O)[C@H](Cc1c[nH]cn1)NC(=O)[C@@H](N)Cc1ccc(O)cc1)C(=O)N[C@H](C(=O)N[C@@H](C)C(=O)N[C@@H](Cc1c[nH]cn1)C(=O)N[C@@H](CC(C)C)C(=O)N[C@@H](CC(C)C)C(=O)O)C(C)C,,"mouse, SN model",dose not given,,ALT,178 ± 18 IU/L
